# Measurements from different studies.
# Each line is one published result; not all experiments were run side by side. Changes are numbered by the printed parent chain. ± marks the error that the study gave.
# T1: MBNL1 ZF3-4 duplicated; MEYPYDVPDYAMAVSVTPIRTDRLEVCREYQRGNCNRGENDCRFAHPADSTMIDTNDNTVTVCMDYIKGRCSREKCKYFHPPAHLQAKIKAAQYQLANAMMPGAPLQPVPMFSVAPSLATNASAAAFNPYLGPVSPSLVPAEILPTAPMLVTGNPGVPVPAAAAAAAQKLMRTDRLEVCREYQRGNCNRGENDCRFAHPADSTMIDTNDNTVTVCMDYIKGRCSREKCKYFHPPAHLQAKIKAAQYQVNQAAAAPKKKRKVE
# P1: PRDX1 residues 1-199; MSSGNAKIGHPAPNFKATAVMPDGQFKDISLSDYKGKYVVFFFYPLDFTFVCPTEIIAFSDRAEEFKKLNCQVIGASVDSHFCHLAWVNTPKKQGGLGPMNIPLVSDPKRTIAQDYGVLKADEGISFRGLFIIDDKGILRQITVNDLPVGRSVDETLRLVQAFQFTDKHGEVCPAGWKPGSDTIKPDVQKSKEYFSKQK
# Sequence of UniProt Q96T21 (whole entry, looked up): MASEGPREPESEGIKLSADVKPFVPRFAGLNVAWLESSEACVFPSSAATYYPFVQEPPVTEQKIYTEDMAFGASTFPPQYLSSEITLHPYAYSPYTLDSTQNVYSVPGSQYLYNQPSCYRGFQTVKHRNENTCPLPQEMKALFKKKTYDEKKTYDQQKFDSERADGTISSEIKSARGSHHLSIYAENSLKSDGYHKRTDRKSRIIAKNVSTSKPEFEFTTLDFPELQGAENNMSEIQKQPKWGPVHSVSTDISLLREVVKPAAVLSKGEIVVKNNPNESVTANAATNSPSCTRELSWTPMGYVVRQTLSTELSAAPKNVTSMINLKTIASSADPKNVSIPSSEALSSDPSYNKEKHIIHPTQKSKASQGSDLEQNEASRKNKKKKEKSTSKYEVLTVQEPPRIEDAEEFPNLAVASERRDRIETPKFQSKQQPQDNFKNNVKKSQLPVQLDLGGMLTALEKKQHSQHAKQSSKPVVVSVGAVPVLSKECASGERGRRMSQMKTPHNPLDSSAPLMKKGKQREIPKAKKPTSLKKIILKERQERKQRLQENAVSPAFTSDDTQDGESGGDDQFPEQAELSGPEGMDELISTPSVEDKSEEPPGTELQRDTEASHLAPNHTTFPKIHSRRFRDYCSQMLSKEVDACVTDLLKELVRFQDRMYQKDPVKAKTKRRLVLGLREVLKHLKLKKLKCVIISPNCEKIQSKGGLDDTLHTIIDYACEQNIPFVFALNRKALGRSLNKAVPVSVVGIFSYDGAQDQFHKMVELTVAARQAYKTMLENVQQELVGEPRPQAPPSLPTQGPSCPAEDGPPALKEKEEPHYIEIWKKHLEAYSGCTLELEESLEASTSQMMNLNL
# Sequence of UniProt P19525 (whole entry, unmodified, looked up): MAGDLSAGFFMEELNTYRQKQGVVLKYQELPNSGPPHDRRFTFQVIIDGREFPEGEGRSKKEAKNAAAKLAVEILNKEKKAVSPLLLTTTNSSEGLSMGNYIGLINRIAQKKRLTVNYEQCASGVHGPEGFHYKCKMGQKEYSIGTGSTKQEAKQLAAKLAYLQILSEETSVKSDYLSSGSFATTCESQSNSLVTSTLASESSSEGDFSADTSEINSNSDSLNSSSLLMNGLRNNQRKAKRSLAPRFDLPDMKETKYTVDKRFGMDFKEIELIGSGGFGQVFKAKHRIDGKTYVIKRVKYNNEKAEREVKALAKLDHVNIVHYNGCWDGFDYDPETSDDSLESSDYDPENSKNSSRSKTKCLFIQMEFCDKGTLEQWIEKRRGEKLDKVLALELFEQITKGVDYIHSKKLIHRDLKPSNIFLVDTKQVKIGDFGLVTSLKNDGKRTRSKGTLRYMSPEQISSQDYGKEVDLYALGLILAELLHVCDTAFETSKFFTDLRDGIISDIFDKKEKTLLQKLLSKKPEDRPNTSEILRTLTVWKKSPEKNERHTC
# Sequence of UniProt P27695 (whole entry, looked up): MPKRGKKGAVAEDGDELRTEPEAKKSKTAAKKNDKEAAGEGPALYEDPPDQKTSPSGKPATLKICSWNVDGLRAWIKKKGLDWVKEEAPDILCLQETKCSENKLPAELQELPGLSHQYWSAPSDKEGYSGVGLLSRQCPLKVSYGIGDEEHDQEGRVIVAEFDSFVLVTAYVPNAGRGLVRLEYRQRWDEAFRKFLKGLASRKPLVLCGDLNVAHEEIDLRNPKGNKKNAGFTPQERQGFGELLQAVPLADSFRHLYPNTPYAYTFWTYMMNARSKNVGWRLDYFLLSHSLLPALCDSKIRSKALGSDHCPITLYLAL
# Sequence of UniProt P0DX76 (whole entry, looked up): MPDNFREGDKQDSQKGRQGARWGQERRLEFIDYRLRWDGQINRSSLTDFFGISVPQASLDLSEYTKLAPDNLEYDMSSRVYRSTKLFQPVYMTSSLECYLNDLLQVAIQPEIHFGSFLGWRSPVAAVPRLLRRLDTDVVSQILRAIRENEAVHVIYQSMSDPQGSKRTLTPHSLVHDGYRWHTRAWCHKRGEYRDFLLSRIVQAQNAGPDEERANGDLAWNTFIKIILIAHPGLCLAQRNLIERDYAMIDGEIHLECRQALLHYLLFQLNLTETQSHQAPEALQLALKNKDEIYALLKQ
# Sequence of UniProt P04395 (whole entry, looked up): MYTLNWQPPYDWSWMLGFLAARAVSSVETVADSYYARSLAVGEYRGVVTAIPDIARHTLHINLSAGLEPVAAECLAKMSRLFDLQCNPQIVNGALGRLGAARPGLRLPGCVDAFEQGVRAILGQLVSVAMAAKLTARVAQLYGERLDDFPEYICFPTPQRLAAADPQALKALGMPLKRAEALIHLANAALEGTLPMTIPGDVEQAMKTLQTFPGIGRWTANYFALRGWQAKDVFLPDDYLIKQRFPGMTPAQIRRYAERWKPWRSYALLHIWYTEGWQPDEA
Molecule,tested on,assay,test system,conditions,how to read,measurement,value
CTGACCTCATCATTTTCTTAAAAACTGACACTTACAATGTGGTCAGTT (dsDNA),"protein holo (Bacillus clausii, UniProt A0A268NVG2)",fluorescence titration,"double-stranded DNA, one strand shown","Mg2+ 5 mM, apparent, Hill fit, added: PLP",,Kd,16.5 ± 0.7 nM
CCCCCCC (ssDNA),"capW 1-299 (Escherichia coli, UniProt P0DX76)",fluorescence polarization,single-stranded DNA,range over sequences,,Kd,9540 nM
CTGACCTCATCATCTCCCTACACACTGACACTTACAATGTGGTCAGTT (dsDNA),"protein holo R370Q/R371Q (Bacillus clausii, UniProt A0A268NVG2)",fluorescence titration,"double-stranded DNA, one strand shown","Mg2+ 5 mM, apparent, Hill fit, added: PLP",,Kd,47.5 ± 1.8 nM
P1 D47A,DOK3 fragment,pull-down,,"without SAB, read off a plot",higher = more binding,IP/Input,0.47 IP/Input
UUUUGCUUUUUUUUUUUGCUUUU (ssRNA),"T1, MBNL1 ZF3-4 duplicated",EMSA,RNA,,"relative to: MBNL-AB, higher = weaker binding",relative binding,6 fold
RNA 1 GGAGGAUGUUAAUUGGCGUGUCUUGUCUGCAACGGUAUUC / RNA 2 GAAUACCGUUGCAGACAAGACACGCCAAUUAACAUCCUCC (dsRNA),"EIF2AK2 1-185 Y142W/R107A (Homo sapiens, UniProt P19525)",tryptophan fluorescence anisotropy,double-stranded RNA,1 µM,,binding,binds
CTGACCAAAACAAAAAATCTCCAAAAAACTCGAAAAAAGTGGTCAGTT (dsDNA),"protein holo K360Q/R364Q (Bacillus clausii, UniProt A0A268NVG2)",fluorescence titration,"double-stranded DNA, one strand shown","Mg2+ 5 mM, apparent, Hill fit, added: PLP",,Kd,38.8 ± 3.2 nM
CGATAGCATCCTACCTTCTCTCCAT (dsDNA; 25-mer duplex),"alkA 1-282 (Escherichia coli, UniProt P04395)",competition,"double-stranded DNA, one strand shown",37 °C,,Ki,33 ± 16 nM
GCAGCCCAUGAUGGGUGAAUCCGAAAUCCUCGAUGGGUCCAGCUUGAUGUCUUUGCAGC (structured RNA; internal loop hairpin),"SECISBP2 515-854 (Homo sapiens, UniProt Q96T21)",EMSA,folded RNA,,,Kd,780 nM
CGGGGCGGGCCGGGGGCGGGGT (G-quadruplex DNA; parallel in K+),"APEX1 full length assumed (Homo sapiens, UniProt P27695)",fluorescence anisotropy,folded DNA,"K+ 50 mM, without Mg2+, EDTA",,Kd,190 ± 50 nM
AGGGGAACGATATTAGTACATACTCTTTTATATGGGGG (dsDNA),ribK full length assumed (UniProt H2C8H2),fluorescence polarization,"double-stranded DNA, one strand shown",added: CTP 100 µM,,K1/2,105 nM
UGGAGCCUUCCACCCCGGCACUCAUGACGGUCUGCCUGAAAACCAGCCCGCUGGUGGGGCAGUCCCGAGGACCUGGCGUGCAUCCCCGCCGGAGGAAGGUCCA (structured RNA),"SECISBP2 344-854 (Homo sapiens, UniProt Q96T21)",EMSA,folded RNA,,,Kd,350 nM
